Measurements gathered from unrelated publications.
A part holds a random share of what one study measured. Substitutions count along the parent as printed.

Block 1 — target: CCNA1, cyclin fold, Cln2 fusion (human); technique: yeast growth competition, sequencing; sample: yeast; notes: weak parent motif; relative to: not given; direction: higher = stronger binding; quantity: normalised enrichment score
Starting sequence: PKMYT1 docking peptide (human); SFEPRNLLSLFED; partner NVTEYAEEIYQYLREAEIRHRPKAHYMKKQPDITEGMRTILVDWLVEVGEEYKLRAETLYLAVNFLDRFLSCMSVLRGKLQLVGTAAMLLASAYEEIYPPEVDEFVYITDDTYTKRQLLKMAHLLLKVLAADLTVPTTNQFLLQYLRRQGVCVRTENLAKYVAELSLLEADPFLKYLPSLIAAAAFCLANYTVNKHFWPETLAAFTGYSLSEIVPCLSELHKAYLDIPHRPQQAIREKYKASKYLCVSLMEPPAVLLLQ
P4F: 0.0748
F11A: 0.431
E12V: -0.154
L10H: 0.0517
S1N: 0.308
E12F: 0.136
E3A: 0.149
L8P: 0.155
P4M: 0.298
N6A: 0.0732
R5L: 0.315
L10V: 0.242
R5K: 0.181
E12P: 0.0982
E12H: 0.0284
F2P: 0.111
S1H: 0.105
F11Y: 0.484
N6G: 0.423
R5P: -0.095
D13S: 0.191
E12M: -0.234
L7C: 0.348
D13E: -0.0608
L8Q: 0.171

Block 2 — technique: protein-binding microarray; molecule type: double-stranded DNA, one strand shown; sample: in vitro; tested at: 2200 nM top; notes: 60-bp whole probe; added: salmon DNA 0.4 mg/ml; relative to: random background probes; direction: higher = stronger binding; quantity: fitted relative affinity; constant ends, left off below: GCCTAGCAC … GTCTTGATTCGCTTGACGCTGCTG
Target: Interferon regulatory factor 7, full length, phosphomimetic (IRF7, Homo sapiens, UniProt Q92985, residues 1-503, S471D/S472D/S475D/S476D/S477D/S483D/S484D/S487D)
Chain of UniProt Q92985 (whole entry, unmodified, looked up): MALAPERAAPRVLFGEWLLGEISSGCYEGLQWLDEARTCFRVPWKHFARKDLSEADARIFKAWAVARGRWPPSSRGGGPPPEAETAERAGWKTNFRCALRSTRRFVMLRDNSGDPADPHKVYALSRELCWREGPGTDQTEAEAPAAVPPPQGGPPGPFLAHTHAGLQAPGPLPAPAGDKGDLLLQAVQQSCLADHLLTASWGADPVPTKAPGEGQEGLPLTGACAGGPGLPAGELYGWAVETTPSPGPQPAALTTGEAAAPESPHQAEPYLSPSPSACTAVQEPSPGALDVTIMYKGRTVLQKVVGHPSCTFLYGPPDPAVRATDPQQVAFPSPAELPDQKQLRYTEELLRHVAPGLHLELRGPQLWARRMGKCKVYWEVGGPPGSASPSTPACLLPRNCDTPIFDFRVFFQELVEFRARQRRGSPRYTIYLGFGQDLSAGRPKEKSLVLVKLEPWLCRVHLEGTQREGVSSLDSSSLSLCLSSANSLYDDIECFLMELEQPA
TTAGAACTGGGGTTTTGATTAGTGCTA: 0.287 z-score
TTAGATCTCAGTTTCGATTAGTGCTAG: 5.42 z-score
TTAGGTTTCCTTTCCCCTTAGTGCTAG: 4.48 z-score
TCAAGTTTTTATTTTCTACTGTGCTAG: 1.99 z-score
GACAGACTGGGGTTTCGGGACGTGCTA: 0.899 z-score
GACGGACTGCTTTTGCTGACGTGCTAG: 0.0986 z-score
GTCGGTATCGGTTTCGGGACGTGCTAG: 4.67 z-score
TTAGGTATCGGGTTTGGGTTAGTGCTA: 1.19 z-score
TTAGGTATCGACTTTCAGTTAGTGCTA: 1.65 z-score
TCACTAATAAATATGAGACTGTGCTAG: -0.345 z-score
TCATCTTGCAGTATGGAACTGTGCTAG: 1.3 z-score
TCAGGTATCGGGTATCGGTTAGTGCTA: 1.33 z-score
GGAAAAATGATGTTTTAGGTCGTGCTA: -0.561 z-score
TCATTTTTTTTTGTATTACTGTGCTAG: 2.2 z-score
GACGGTCTCGGACTGGGGTCGTGCTAG: -0.6 z-score
TTAGGTTTCCTTAACCTTTAGTGCTAG: 0.732 z-score
TCATGAGTCACTTCTGGTACTGTGCTA: 0.543 z-score
TTAGGTTTCGGGTTTGGGTTAGTGCTA: 8.62 z-score
TTAGAACTGGGTATCGGTTAGTGCTAG: -0.0639 z-score

Block 3 — technique: DHFR PCA, deep sequencing; sample: yeast; added: (+)-ABA 4.8 µM; relative to: wild-type fitted maximum; direction: higher = stronger binding; quantity: relative binding score
Target: ABI1, truncated, D143A, DHFR fusion (Arabidopsis thaliana)
Notes: methotrexate growth selection, single substitutions
Starting sequence: PYL1, truncated, DHFR fusion (Arabidopsis thaliana); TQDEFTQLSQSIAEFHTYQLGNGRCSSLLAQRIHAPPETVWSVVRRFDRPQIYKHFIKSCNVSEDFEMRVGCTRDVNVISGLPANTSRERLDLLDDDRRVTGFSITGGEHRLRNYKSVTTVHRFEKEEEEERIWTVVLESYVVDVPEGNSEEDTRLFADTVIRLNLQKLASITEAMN
R155K: 80.5%
T106A: 10.5%
F124Q: 43.3%
E128D: 82.7%
A35R: 8.06%
V43A: 16.5%
M68S: 24%
T173Q: -4.46%
R111H: -2.7%
F157W: 11.9%
I12A: 5.61%
F66D: 46.6%

Block 4 — technique: RNA Bind-n-Seq; molecule type: RNA; sample: in vitro; tested at: 365 nM; relative to: no-protein control; direction: higher = stronger binding; quantity: RBNS enrichment (R)
Target: RNA binding protein fox-1 homolog 2, RRM domain, GST-SBP tag (RBFOX2, Homo sapiens, UniProt O43251-10, residues 100-194)
Notes: natural RNA segment, single round, ends assumed
Constant ends, left off below: GGGAGUUCUACAGUCCGACGAUC … UGGAAUUCUCGGGUGCCAA
Residues (chain): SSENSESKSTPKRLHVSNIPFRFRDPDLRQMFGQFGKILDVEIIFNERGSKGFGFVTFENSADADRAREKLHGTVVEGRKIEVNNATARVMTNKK
UUUUUUUUUGUCUCAUGUCACAGAUGACUGUUUCGCACAAACACAGCAUAGUGGAAGAAAAAAUUUCAGAAGCAAAGUAGCCAAGCACAUGUUAGGAUGGCCACGAAUGC: 4.88
CUGGAAUUAAAUGACCGACCAACACAGUACCAAGAGGAUGAAGAGAAGAUGUUUUGCGUUGCUACGUGAAUCAGUGGAUGACUCAUAUUUCACUUGCAUAUGAAAUAUAA: 0.687
CAUGGUUAAAACAUUAUUCUCCUAUGAUAUUCAGAUUCUAGUUCUAUAUACUUCAUUAUAUAACUUUGAAUUGAUCUGGUGCCAUGACUUUUCUACUUUCAAGAACUAUG: 0.495
UGCCACGGUAAGAUGUAUAGUAUGGCCAUCCACACUAAUUGUAGGAGGACAGCUAAAUGGACAGUCAGUCACUUUGAGGUCACUGCAUUUGACUGGAAAUGUAUAAUGUG: 0.441
UCUCUGGUACUAGCUGCUGUAGCAGUGCCCUUCAUCCAGGGCAGUUAAUGGAGUCUUGGACCCUUUCUUUCUCUGGGAUCCCUGCCCAGCACCUUCCUAUAGAGAUGACU: 0.284
UGUAAAGUGCCCAAGAUCCUGCACCCAUAUCUUGGAACUUAUCUUUGUUCUACAUCAUUCUCUCUUGAUCAAGAAAUGAAAUUUCUUAAUCCUUGAAUAUUAGUAAGGUC: 0.289
CAUUCUUGGGUGGAAAUAGGUCUCCGUUUACCUGAGCUGAGGGUUGUUUGGAAAAUAAGAGCCAAUUUUUCUUAGAAUAUAUAUGUAUAUUAAAUGAGCAUUUGACCUGU: 0.618
UGUUAACCUUCAUGUGACAAAACAAGGAUAUAUUCUUGCUGCUACGACAUGCUUUUGACUCAGUAUGACUGGAAGAGUUUUGGACCACUGAAUCCUGUCUUAAUUAAAAG: 0.262

A few entries again (block 1):
P4F: 0.0748
R5K: 0.181
F11Y: 0.484
F11A: 0.431
L7C: 0.348
